# Experimental data of several laboratories.
# Lines come from different studies, so protocols differ. ± gives the spread as reported.
SMILES,tested on,test,system,conditions,how to read,endpoint,result
CCN(CC)CC(=O)Nc1cccc(-n2cc(-c3ccc4ccc(-c5cn(-c6cccc(NC(=O)CN(CC)CC)c6)nn5)cc4c3)nn2)c1,RCC4,"PCR angiogenesis array, measured: PTGS1",,"5 x IC50, 2 h, normoxia",relative to: untreated,fold regulation,1.04
CNS(=O)(=O)Nc1nccc(Cc2c(C)c3ccc(Oc4ncccc4F)cc3oc2=O)c1F,NCI-H1563,cell viability,,7 days,,IC50,830 nM
Cc1ncsc1-c1ccc(C(C)NC(=O)C2CC(O)CN2C(=O)C(NC(=O)CCCCCCCCCCN2CCCC(Nc3ncc(Cl)c(Nc4ccccc4S(=O)(=O)C(C)C)n3)C2)C(C)(C)C)cc1 (stereo not drawn),22Rv1,"RNA-seq, measured: MAPK7 mRNA",,concentration not given,relative to: DMSO,log2 fold change,-1.32
COc1ccc2cc3[n+](cc2c1OCCCOC(=O)c1cscn1)CCc1cc2c(cc1-3)OCO2,,,"C57BL/6 mice, high-fat diet","oral gavage, 40 mg/kg daily, 14 weeks",relative to: HFD control,plasma total cholesterol reduction,38.7%
CC[n+]1cccc2cc(/C=N/NC(=O)c3cccc(C(=O)N/N=C/c4ccc5c(ccc[n+]5CC)c4)n3)ccc21,myc22 MYC G4-DNA parallel,FRET melting,,"1 µM, K1 buffer, DNA 0.2 µM",,ΔTm,18.9 ± 0.9 °C
CC(O)CNCC(C)O.O=C(O)C(Cl)Cl (stereo not drawn),Eleusine indica,,,"15 mg/mL, 21 days, pre-emergence, greenhouse",,herbicidal inhibition,0%
CN1CCCNC(=O)c2cccc(c2)C(=O)NCCCN(C)CCCNc2cccc3c2C(=O)c2cccc(c2C3=O)NCCC1,SAS,"RNA-Seq, measured: PPME1 mRNA",,"1 µM, 6 h",relative to: untreated cells,log2 fold change,-0.871
C=CC(=O)N1[C@H](c2ccc3c(c2)OCO3)c2[nH]c3ccccc3c2C[C@@H]1C(=O)N1CCN(C)CC1,human cyclin E1 N112C-3xFLAG:CDK2,"co-IP with TMT proteomics, measured: CKS1B",,"concentration not given, P61024",relative to: wild type DMSO,relative co-enrichment,116%
C[n+]1cc(/C=N/NC(=O)C(=O)N/N=C/c2cc3ccccc3[n+](C)c2)cc2ccccc21,myc22 MYC G4-DNA parallel,FRET melting,,"1 µM, K1 buffer, DNA 0.2 µM, added: ds26 10 µM",,ΔTm,4.8 ± 0.6 °C
NCCOCCO.O=C(O)C(Cl)Cl,Eclipta prostrata,,,"15 mg/mL, 21 days, pre-emergence, greenhouse",,herbicidal inhibition,0%
CC(C)c1ccc(N(C)c2ccc3c(c2)OCC[C@H]3CNc2cnccc2C(=O)O)cc1,TE-10,"cell growth or viability, ATP luminescence",,7 days,,IC50,16.3 nM
Nc1ncc(-c2cc(-c3cnn(CC(F)(F)F)c3)ncc2F)nc1C(=O)NC1CNCC(F)C1 (stereo not drawn),LRRK2,KINOMEscan,,1 µM,relative to: DMSO control,remaining binding,100%
C[n+]1ccc(/C=N/NC(=O)c2cc(C(=O)N/N=C/c3cc[n+](C)cc3)ncn2)cc1,myc22 MYC G4-DNA parallel,FRET melting,,"1 µM, K1 buffer, DNA 0.2 µM, added: ds26 10 µM",,ΔTm,3.4 ± 0.3 °C
c1ccc(-c2n[nH]cc2-c2ccnc3ccccc23)nc1,KIC1 (Candida albicans),"kinase binding, MIB/MS competition",Candida albicans lysate,1 µM,relative to: DMSO,log2 fold change,0.01
CC[n+]1cccc2cc(/C=N/NC(=O)c3cccc(C(=O)N/N=C/c4ccc5c(ccc[n+]5CC)c4)c3)ccc21,myc22 MYC G4-DNA parallel,FRET melting,,"1 µM, K1 buffer, DNA 0.2 µM, added: ds26 10 µM",,ΔTm,4.5 ± 0.2 °C
C=C(NC(=O)c1csc(-c2nc3c(cc2O)-c2nc(cs2)C(=O)NC(C(C)O)C(=O)NC(=C(C)OC)c2nc(cs2)C(=O)NC2c4nc(cs4)C(=O)NC(COC(=O)c4c5c6c(cccc6n4O)COC(=O)C(OC4CC(C)(O)C(N(C)C)C(C)O4)C2OC5)c2nc-3cs2)n1)C(N)=O (stereo not drawn),Enterococcus faecalis,,"vancomycin-intermediate, 10 isolates",pH 5.5,,MIC50,0.0312 µg/mL
O=C(N/N=C/c1ccc2c(ccc[n+]2Cc2ccccc2)c1)c1ccc2ccc(C(=O)N/N=C/c3ccc4c(ccc[n+]4Cc4ccccc4)c3)nc2n1,myc22 MYC G4-DNA parallel,FRET melting,,"1 µM, K1 buffer, DNA 0.2 µM, added: ds26 10 µM",,ΔTm,14.3 ± 0.7 °C
COc1cc(O)ccc1CCC(c1ccc(O)cc1)c1cc2c(c(C)c1O)OC(c1ccc(O)cc1)CC2 (mixture of isomers),,measured: PGF2α,human whole blood,"3 µM, added: Escherichia coli",,amount,602 ± 294 pg/mL blood
C[n+]1cc(/C=N/NC(=O)c2cc(C(=O)N/N=C/c3cc4ccccc4[n+](C)c3)ncn2)cc2ccccc21,myc22 MYC G4-DNA parallel,FRET melting,,"1 µM, K1 buffer, DNA 0.2 µM",,ΔTm,3.7 ± 0.3 °C
CCN(C(=O)c1cc(F)ccc1Oc1nncnc1N1CCC2(C1)CN([C@H](CCCN(C)CCOC)C(C)C)C2)C(C)C,A673,,muscle,168 h,,GI50,> 10000 nM
O=C(N/N=C/c1ccc(C[n+]2ccccc2)cc1)c1ccc2ccc(C(=O)N/N=C/c3ccc(C[n+]4ccccc4)cc3)nc2n1,myc22 MYC G4-DNA parallel,FRET melting,,"1 µM, K1 buffer, DNA 0.2 µM",,ΔTm,13.3 ± 1.2 °C
C=CC(=O)Nc1cccc(Cn2ncc3cnc(Nc4cnn(CCOC)c4)nc32)c1,MST1 human,"binding, KINOMEscan",,100 nM,lower = stronger binding,percent of control,100%
C[n+]1ccc(/C=N/NC(=O)c2cncc(C(=O)N/N=C/c3cc[n+](C)cc3)n2)cc1,myc22 MYC G4-DNA parallel,FRET melting,,"1 µM, K1 buffer, DNA 0.2 µM",,ΔTm,4.4 ± 0.6 °C
COC1CN([C@H]2CC[C@H]([C@@]3(C)Oc4c(Cl)cc(C(=O)NCc5c(SC)cc(C)[nH]c5=O)c(C)c4O3)CC2)C1,,"RNA-seq, measured: MMP9","human, whole blood","dose not given, 24 h",relative to: pretreatment baseline,log2 fold change,1.99

# Some of these lines once more:
SMILES,tested on,test,system,conditions,how to read,endpoint,result
C[n+]1ccc(/C=N/NC(=O)c2cc(C(=O)N/N=C/c3cc[n+](C)cc3)ncn2)cc1,myc22 MYC G4-DNA parallel,FRET melting,,"1 µM, K1 buffer, DNA 0.2 µM, added: ds26 10 µM",,ΔTm,3.4 ± 0.3 °C
c1ccc(-c2n[nH]cc2-c2ccnc3ccccc23)nc1,KIC1 (Candida albicans),"kinase binding, MIB/MS competition",Candida albicans lysate,1 µM,relative to: DMSO,log2 fold change,0.01
CC[n+]1cccc2cc(/C=N/NC(=O)c3cccc(C(=O)N/N=C/c4ccc5c(ccc[n+]5CC)c4)c3)ccc21,myc22 MYC G4-DNA parallel,FRET melting,,"1 µM, K1 buffer, DNA 0.2 µM, added: ds26 10 µM",,ΔTm,4.5 ± 0.2 °C
C=C(NC(=O)c1csc(-c2nc3c(cc2O)-c2nc(cs2)C(=O)NC(C(C)O)C(=O)NC(=C(C)OC)c2nc(cs2)C(=O)NC2c4nc(cs4)C(=O)NC(COC(=O)c4c5c6c(cccc6n4O)COC(=O)C(OC4CC(C)(O)C(N(C)C)C(C)O4)C2OC5)c2nc-3cs2)n1)C(N)=O (stereo not drawn),Enterococcus faecalis,,"vancomycin-intermediate, 10 isolates",pH 5.5,,MIC50,0.0312 µg/mL
